# Measured values pooled from the literature.
# PTGES3: PTGES3 (Homo sapiens, UniProt Q15185)
# Chain of UniProt Q15185 (whole entry, looked up): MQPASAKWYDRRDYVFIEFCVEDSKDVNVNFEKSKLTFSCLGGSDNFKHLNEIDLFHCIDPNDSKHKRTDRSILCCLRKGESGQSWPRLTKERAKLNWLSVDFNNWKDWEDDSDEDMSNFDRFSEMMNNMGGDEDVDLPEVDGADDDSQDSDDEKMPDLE
# WRKY7 1-348: WRKY7 1-348 (Brassica napus, UniProt C5H9Z7)
# T1: xseA/xseB 1-456;1-80 H238A (Escherichia coli); chain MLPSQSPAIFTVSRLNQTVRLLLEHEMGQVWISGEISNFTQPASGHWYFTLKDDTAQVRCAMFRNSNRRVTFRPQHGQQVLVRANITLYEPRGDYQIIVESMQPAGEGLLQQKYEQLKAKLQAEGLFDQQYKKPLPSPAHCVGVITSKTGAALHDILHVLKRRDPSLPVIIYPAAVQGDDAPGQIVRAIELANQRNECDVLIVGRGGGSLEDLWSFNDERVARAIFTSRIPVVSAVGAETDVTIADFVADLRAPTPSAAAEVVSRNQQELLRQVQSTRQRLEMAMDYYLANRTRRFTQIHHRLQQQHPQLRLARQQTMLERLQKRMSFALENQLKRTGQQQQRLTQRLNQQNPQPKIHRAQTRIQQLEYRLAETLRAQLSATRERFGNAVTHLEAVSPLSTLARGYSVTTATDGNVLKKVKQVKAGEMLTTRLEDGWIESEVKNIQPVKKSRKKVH; chain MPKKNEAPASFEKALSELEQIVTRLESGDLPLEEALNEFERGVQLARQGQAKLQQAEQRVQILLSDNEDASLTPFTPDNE
# B1: UGT76G1 (Stevia rebaudiana, UniProt Q6VAB4); chain MENKTETTVRRRRRIILFPVPFQGHINPILQLANVLYSKGFSITIFHTNFNKPKTSNYPHFTFRFILDNDPQDERISNLPTHGPLAGMRIPIINEHGADELRRELELLMLASEEDEEVSCLITDALWYFAQSVADSLNLRRLVLMTSSLFNFHAHVSLPQFDELGYLDPDDKTRLEEQASGFPMLKVKDIKSAYSNWQILKEILGKMIKQTKASSGVIWNSFKELEESELETVIREIPAPSFLIPLPKHLTASSSSLLDHDRTVFQWLDQQPPSSVLYVSFGSTSEVDEKDFLEIARGLVDSKQSFLWVVRPGFVKGSTWVEPLPDGFLGERGRIVKWVPQQEVLAHGAIGAFWTHSGWNSTLESVCEGVPMIFSDFGLDQPLNARYMSDVLKVGVYLENGWERGEIANAIRRVMVDEEGEYIRQNARVLKQKADVSLMKGGSSYESLESLVSYISSL
# B2: bioZ (Agrobacterium fabrum, UniProt Q7CTU0); chain MQTRSSRMAGFGHAVPARCVDNAEIEASLGLEAGWIERRTGIRSRYWAEAGDTLSGLAERAGRMALEDAKINADDIALTLLATSTPDHLLPPSAPLLAHRLGLTRSGAIDLAGACSGFLYALTLADGFVRTYGRAVLVVAANILSRRINPAERASAVLFADAAGAVVLTPCPEVKRGVLSADLVADGSGYDLIQIAAGGSSQPFSAGMIAEDALMTMRDGREVFSRAVALMTNTSQRVLHEAELTAADISRFVPHQANARMSDAVCGNLGIEREKTVRTIGSFGNSSAATIPLSLSITNAERPLAGGETLLLTAAGAGMTGGAVVYRV
# B3: SLCO1B1 (Homo sapiens, UniProt Q9Y6L6); chain MDQNQHLNKTAEAQPSENKKTRYCNGLKMFLAALSLSFIAKTLGAIIMKSSIIHIERRFEISSSLVGFIDGSFEIGNLLVIVFVSYFGSKLHRPKLIGIGCFIMGIGGVLTALPHFFMGYYRYSKETNINSSENSTSTLSTCLINQILSLNRASPEIVGKGCLKESGSYMWIYVFMGNMLRGIGETPIVPLGLSYIDDFAKEGHSSLYLGILNAIAMIGPIIGFTLGSLFSKMYVDIGYVDLSTIRITPTDSRWVGAWWLNFLVSGLFSIISSIPFFFLPQTPNKPQKERKASLSLHVLETNDEKDQTANLTNQGKNITKNVTGFFQSFKSILTNPLYVMFVLLTLLQVSSYIGAFTYVFKYVEQQYGQPSSKANILLGVITIPIFASGMFLGGYIIKKFKLNTVGIAKFSCFTAVMSLSFYLLYFFILCENKSVAGLTMTYDGNNPVTSHRDVPLSYCNSDCNCDESQWEPVCGNNGITYISPCLAGCKSSSGNKKPIVFYNCSCLEVTGLQNRNYSAHLGECPRDDACTRKFYFFVAIQVLNLFFSALGGTSHVMLIVKIVQPELKSLALGFHSMVIRALGGILAPIYFGALIDTTCIKWSTNNCGTRGSCRTYNSTSFSRVYLGLSSMLRVSSLVLYIILIYAMKKKYQEKDINASENGSVMDEANLESLNKNKHFVPSAGADSETHC
# B4: enzyme (Streptomyces parvus, UniProt A0A7K3RVR3); chain MYVPEQYRPRDASWTLELIRSNPLALLVTNGPQHPWATHVPVLFAEEPDGPEGPDGLDATGDDLVGRRLLGHLNLMNPHWEALAGAGHALLVFQGPGSYVSPTVYETAPAAPTWDFTSVHVHGALRLIDDPDDLRKIVQATVRAYEREVGTDWDMSESLEYFERLLPGVRGFEIKIESVDSMFKLSQEQLPETVTKVIDSFRRSDGGRRQELATMIERAASD
# B5: SIRT5 W222A (Homo sapiens, UniProt Q9NXA8); chain ARPSSSMADFRKFFAKAKHIVIISGAGVSAESGVPTFRGAGGYWRKWQAQDLATPLAFAHNPSRVWEFYHYRREVMGSKEPNAGHRAIAECETRLGKQGRRVVVITQNIDELHRKAGTKNLLEIHGSLFKTRCTSCGVVAENYKSPICPALSGKGAPEPGTQDASIPVEKLPRCEEAGCGGLLRPHVVAFGENLDPAILEEVDRELAHCDLCLVVGTSSVVYPAAMFAPQVAARGVPVAEFNTETTPATNRFRFHFQGPCGTTLPEALA
# Chain of UniProt O94956 (whole entry, looked up): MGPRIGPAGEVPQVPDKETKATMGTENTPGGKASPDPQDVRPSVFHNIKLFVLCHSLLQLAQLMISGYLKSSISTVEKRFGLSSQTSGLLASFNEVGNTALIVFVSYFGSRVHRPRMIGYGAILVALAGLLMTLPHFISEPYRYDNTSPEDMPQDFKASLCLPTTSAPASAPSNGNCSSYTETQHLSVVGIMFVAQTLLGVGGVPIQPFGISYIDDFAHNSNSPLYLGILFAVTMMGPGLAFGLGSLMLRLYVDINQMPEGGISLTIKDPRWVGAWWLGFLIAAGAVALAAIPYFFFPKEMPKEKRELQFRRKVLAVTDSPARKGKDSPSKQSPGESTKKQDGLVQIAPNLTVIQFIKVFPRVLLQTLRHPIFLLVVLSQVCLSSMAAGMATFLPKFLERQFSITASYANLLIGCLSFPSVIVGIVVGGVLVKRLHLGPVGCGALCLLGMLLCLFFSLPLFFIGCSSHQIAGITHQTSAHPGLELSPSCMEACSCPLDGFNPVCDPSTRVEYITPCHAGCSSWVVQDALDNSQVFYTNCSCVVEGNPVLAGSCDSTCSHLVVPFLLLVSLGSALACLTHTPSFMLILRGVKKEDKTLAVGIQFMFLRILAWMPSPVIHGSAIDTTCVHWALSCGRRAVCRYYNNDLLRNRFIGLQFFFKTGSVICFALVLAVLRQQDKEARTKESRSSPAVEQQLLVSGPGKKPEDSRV
# Chain of UniProt P17706 (whole entry, looked up): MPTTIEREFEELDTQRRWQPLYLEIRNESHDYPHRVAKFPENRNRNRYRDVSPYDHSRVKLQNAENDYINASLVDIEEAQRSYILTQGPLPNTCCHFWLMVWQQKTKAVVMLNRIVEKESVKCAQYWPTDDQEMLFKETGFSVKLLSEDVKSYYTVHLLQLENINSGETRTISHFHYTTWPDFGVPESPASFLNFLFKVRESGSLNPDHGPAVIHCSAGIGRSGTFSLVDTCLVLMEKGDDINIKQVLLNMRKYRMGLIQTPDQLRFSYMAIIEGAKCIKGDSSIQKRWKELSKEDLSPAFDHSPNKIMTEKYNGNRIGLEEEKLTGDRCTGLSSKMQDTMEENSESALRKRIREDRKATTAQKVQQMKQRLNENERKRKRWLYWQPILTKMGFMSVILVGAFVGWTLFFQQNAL
# Chain of UniProt P22310 (whole entry, looked up): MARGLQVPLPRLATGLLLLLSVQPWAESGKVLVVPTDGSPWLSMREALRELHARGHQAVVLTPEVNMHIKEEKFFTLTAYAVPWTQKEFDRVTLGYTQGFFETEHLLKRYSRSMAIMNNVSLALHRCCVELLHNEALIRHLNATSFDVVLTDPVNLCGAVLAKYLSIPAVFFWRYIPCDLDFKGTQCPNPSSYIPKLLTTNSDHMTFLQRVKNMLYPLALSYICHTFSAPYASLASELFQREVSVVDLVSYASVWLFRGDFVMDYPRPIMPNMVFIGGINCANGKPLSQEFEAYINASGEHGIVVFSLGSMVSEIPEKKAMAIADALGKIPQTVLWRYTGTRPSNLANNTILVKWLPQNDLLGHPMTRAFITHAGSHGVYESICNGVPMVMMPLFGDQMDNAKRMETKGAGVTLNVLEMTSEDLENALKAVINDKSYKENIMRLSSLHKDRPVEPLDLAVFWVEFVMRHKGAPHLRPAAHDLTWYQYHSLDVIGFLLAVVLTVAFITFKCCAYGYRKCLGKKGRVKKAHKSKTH
# Chain of UniProt O15438 (whole entry, looked up): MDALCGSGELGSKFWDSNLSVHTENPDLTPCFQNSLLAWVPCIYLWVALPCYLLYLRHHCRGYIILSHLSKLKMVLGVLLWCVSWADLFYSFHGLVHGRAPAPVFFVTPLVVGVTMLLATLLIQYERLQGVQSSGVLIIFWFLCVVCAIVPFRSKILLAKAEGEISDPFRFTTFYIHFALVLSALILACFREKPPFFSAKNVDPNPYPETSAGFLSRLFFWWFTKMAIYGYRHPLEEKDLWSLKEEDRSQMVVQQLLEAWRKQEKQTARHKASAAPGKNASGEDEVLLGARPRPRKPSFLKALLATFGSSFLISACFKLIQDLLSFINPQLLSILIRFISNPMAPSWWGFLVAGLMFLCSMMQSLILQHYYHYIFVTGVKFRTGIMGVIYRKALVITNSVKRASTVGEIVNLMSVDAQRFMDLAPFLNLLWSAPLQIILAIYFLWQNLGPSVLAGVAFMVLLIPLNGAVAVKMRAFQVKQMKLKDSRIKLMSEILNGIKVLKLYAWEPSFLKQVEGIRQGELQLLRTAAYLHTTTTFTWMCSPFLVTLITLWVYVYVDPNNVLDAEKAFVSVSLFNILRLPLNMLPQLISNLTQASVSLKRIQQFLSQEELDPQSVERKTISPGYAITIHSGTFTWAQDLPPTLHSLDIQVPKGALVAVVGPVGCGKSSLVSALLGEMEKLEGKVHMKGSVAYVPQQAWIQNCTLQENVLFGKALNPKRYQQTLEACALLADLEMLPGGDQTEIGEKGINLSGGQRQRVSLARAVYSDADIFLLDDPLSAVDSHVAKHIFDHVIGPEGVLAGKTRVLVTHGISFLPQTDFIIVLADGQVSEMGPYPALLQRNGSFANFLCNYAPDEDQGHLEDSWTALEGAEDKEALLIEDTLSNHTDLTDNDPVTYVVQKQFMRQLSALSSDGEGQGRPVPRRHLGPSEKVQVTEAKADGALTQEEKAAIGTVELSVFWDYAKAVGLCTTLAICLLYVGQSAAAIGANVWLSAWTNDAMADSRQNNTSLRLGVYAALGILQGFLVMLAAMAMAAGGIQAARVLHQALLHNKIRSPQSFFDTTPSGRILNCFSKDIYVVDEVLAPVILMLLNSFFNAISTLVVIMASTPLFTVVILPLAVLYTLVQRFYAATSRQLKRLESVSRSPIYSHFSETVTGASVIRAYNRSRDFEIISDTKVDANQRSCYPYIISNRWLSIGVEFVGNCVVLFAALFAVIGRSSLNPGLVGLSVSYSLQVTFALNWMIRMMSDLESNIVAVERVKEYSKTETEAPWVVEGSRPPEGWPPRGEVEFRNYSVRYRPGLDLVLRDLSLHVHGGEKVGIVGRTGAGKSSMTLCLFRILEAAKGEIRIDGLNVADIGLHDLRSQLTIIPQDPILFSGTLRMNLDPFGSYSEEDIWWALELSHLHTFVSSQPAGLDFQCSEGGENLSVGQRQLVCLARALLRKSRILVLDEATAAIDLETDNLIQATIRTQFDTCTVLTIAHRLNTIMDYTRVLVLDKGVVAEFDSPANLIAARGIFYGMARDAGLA
# Chain of UniProt Q9LFJ8 (whole entry, looked up): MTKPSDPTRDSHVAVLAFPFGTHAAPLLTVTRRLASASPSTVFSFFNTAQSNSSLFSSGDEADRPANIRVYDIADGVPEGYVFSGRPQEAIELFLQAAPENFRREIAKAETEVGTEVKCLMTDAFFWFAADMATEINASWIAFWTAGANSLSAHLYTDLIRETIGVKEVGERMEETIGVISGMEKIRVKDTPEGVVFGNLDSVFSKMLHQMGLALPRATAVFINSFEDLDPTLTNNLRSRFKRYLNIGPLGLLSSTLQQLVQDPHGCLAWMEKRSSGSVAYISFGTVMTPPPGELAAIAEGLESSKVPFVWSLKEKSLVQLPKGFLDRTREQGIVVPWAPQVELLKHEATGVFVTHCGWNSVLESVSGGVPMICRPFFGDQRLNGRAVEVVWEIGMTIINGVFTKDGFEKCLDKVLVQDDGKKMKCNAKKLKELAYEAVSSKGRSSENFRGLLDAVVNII
Substance,target or system,assay,test system,setting,measurement,value
B1 (UGT76G1),C=C1C[C@@]23CC[C@H]4[C@@](C)(CCC[C@@]4(C)C(=O)O[C@@H]4O[C@H](CO)[C@@H](O)[C@H](O)[C@H]4O)[C@@H]2CC[C@]1(O[C@@H]1O[C@H](CO)[C@@H](O)[C@H](O)[C@H]1O[C@@H]1O[C@H](CO)[C@@H](O)[C@H](O)[C@H]1O)C3,steady-state kinetics,,"pH 7.25, 40 °C",Km,84.8 µM
"rCR (Lodderomyces parapsilosis, UniProt A1X808)",COC(=O)CC(C)=O,steady-state kinetics,,"pH 7, 30 °C, together with: NADH 0.5 mM",Km,280 µM
TAAAGACGTACAGACCAGACACGGCGGCGGCGGCGGGAGAGGGGATTCCCTGCGCCC (dsDNA),PTGES3,EMSA,"double-stranded DNA, one strand shown",,binding,no binding
CGTGGGCTCAAGTTGCCTTTCCTTTGGGTT (dsDNA),WRKY7 1-348,EMSA,"double-stranded DNA, one strand shown",,binding,binds
B2 (bioZ),CC(C)(COP(=O)(O)OP(=O)(O)OC[C@H]1O[C@@H](n2cnc3c(N)ncnc32)[C@H](O)[C@@H]1OP(=O)(O)O)[C@@H](O)C(=O)NCCC(=O)NCCSC(=O)CCCC(=O)O,steady-state kinetics,,,Km,41.1 µM
"UGT1A4 (Homo sapiens, UniProt P22310)",CCCCN1C(=O)c2cccc3c(N4CCN(C)CC4)ccc(c23)C1=O,steady-state kinetics,,,Km,15.1 µM
"enzyme (Arabidopsis thaliana, UniProt Q9LFJ8)",Oc1cc(O)c2cc(O)c(-c3ccc(O)c(O)c3)[o+]c2c1,steady-state kinetics,,"pH 7.5, 30 °C",Km,730 µM
B3 (SLCO1B1),O=C(c1ccc(OCCN2CCCCC2)cc1)c1c(-c2ccc(O[C@@H]3O[C@H](C(=O)O)[C@@H](O)[C@H](O)[C@H]3O)cc2)sc2cc(O)ccc12,steady-state kinetics,HEK293 cells,"pH 7.4, 37 °C",Km,16.2 µM
"PTPN2 (Homo sapiens, UniProt P17706)",CC(C)[C@H](NC(=O)[C@H](CCC(=O)O)NC(=O)[C@H](CCC(=O)O)NC(=O)[C@H](Cc1ccc(O)cc1)NC(=O)[C@H](CCC(=O)O)NC(=O)[C@H](CC(=O)O)NC(=O)[C@H](CC(=O)O)NC(=O)[C@H](CCC(=O)O)NC(=O)c1ccc2c(c1)C1(OC2=O)c2ccc(O)cc2Oc2cc(O)ccc21)C(N)=O,steady-state kinetics,,pH 9.5,Km,2.8 µM
ATAGATTACAAAGTCAAAAAAAATCTTAAA (dsDNA),WRKY7 1-348,EMSA,"double-stranded DNA, one strand shown",,binding,binds
"ABCC3 (Homo sapiens, UniProt O15438)",O=C(c1ccc(OCCN2CCCCC2)cc1)c1c(-c2ccc(O[C@@H]3O[C@H](C(=O)O)[C@@H](O)[C@H](O)[C@H]3O)cc2)sc2cc(O)ccc12,steady-state kinetics,Sf9 vesicles,"pH 7, 37 °C, not purified, together with: ATP",Km,1.38 µM
B4 (enzyme),N[C@@H](CCCNO)C(=O)O,steady-state kinetics,,"pH 8, 25 °C, together with: heme",Km,1120 µM
B5 (SIRT5 W222A),CSCC[C@H](NC(=O)[C@H](CC(C)C)NC(=O)[C@H](CCCCNC(C)=O)NC(=O)[C@H](CCCCN)NC(=O)[C@H](Cc1c[nH]cn1)NC(=O)[C@H](CCCNC(=N)N)NC(=O)[C@H](CO)NC(=O)[C@@H](NC(=O)[C@H](CO)NC(=O)[C@H](CCC(N)=O)NC(=O)CNC(=O)[C@H](CCCCN)NC(=O)[C@@H](N)CCCCN)[C@@H](C)O)C(=O)N[C@@H](Cc1ccccc1)C(=O)N[C@@H](CCCCN)C(=O)N[C@H](C(=O)N[C@@H](CCC(=O)O)C(=O)NCC(=O)O)[C@@H](C)O,steady-state kinetics,,"pH 7.5, 37 °C, together with: saturating NAD+",Km,774 µM
"SLCO2B1 (Homo sapiens, UniProt O94956)",O=C(c1ccc(OCCN2CCCCC2)cc1)c1c(-c2ccc(O)cc2)sc2cc(O[C@@H]3O[C@H](C(=O)O)[C@@H](O)[C@H](O)[C@H]3O)ccc12,steady-state kinetics,HEK293 cells,"pH 7.4, 37 °C",Km,48.3 µM
DNA 1 GGATGGGACGTGGGCAGTAAGATGGACAGAAGACAGGTAGAATGACGGGTGCAGGGTAAA / DNA 2 TTTACCCTGCACCCGTCATTCTACCTGTCTTCTGTCCATCTTACTGCCCACGTCC (dsDNA; 5' overhang),"T1, xseA/xseB 1-456;1-80 H238A (Escherichia coli)",mass photometry,double-stranded DNA,,binding,binds
"ABCC2 (Homo sapiens, UniProt Q92887)",O=C(c1ccc(OCCN2CCCCC2)cc1)c1c(-c2ccc(O[C@@H]3O[C@H](C(=O)O)[C@@H](O)[C@H](O)[C@H]3O)cc2)sc2cc(O)ccc12,steady-state kinetics,Sf9 vesicles,"pH 7, 37 °C, not purified, together with: ATP",Km,64.2 µM
CCGGACCTCAGGGCCGCTCAGATTCCTGGAGAGGAAGCCAAGTGTCCTTCTGCCCTC (dsDNA),PTGES3,EMSA,"double-stranded DNA, one strand shown",,binding,no binding
